Assay results of several laboratories.
Numbered parts are unrelated; each lists some results of a single study.

Set 1
Target: Fragile X messenger ribonucleoprotein 1, C-terminal low-complexity region (Fmr1, Mus musculus, UniProt P35922)
Method: RNA Bind-n-Seq
Molecule type: RNA
Medium: in vitro
Concentration: 200 nM
Setting: whole 134-nt RNA, ends assumed
Together with: 150 mM LiCl
Baseline: input library
Direction: higher = stronger binding
Library: 7-deaza-guanosine replaces G
| Strand | log2 enrichment |
| --- | --- |
| GGGAGUUCUACAGUCCGACGAUCACCAUGCAGGUGGGCAUCUUUGGGAAGUGGGGCAAGGGGGGGAUAGGGAGCGGGGUAACACUUUGGGAACAGGUGGUCCCAGGUCGUUUCUGGAAUUCUCGGGUGUCAAGG | 0.749 |
| GGGAGUUCUACAGUCCGACGAUCCCUGUGCUACACAUCGUAUGUACCGAAUCAAAUUUUUUUAAACCCCCCCAAAUUUUUAAAAAAGUAUUAUGUUACGCCGUUCGGAUCUGCUGGAAUUCUCGGGUGUCAAGG | 0.646 |
| GGGAGUUCUACAGUCCGACGAUCGUGCUACACAUCGUAUGUACCGAAUCGGGGAAAAAAAGGGGAAAAAAAGGGGAAAAAAAGGGGAAAGUAUUAUGUUACGCCGUUCGGAUCUGGAAUUCUCGGGUGUCAAGG | 0.797 |

Set 2
Target: RNA binding protein fox-1 homolog 2, RRM domain, GST-SBP tag (RBFOX2, Homo sapiens, UniProt O43251-10, residues 100-194)
Method: RNA Bind-n-Seq
Molecule type: RNA
Medium: in vitro
Concentration: 365 nM
Setting: natural RNA segment, single round, ends assumed
Baseline: no-protein control
Direction: higher = stronger binding
All sequences stand within: GGGAGUUCUACAGUCCGACGAUC … UGGAAUUCUCGGGUGCCAA
Target sequence (chain): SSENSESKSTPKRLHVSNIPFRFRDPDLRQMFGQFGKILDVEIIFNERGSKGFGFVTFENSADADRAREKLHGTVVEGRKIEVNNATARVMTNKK
| Strand | RBNS enrichment (R) |
| --- | --- |
| AGGGCUGAACAUAGGAUUUAUGGCUAGCAGAAUUCCAGCUCCCUUGGGUAAGGAACCAAAGCUCUCUUGGCUAUAGCCAGCCUCCUCAUUGAAGGGUGUUUUAGGGUAUC | 0.318 |
| GGUGAGACAUAUUCUCCAUAAAGCUACUGUAGUAGAAUUCAUUCUGGGCAAACACUGAAAAAAGUGCCUUACAGUAUUUCUGCUCAUGAAAGAGUUUCACUAUUUUGGAU | 0.38 |
| CUGUUUUUAACCCUCCAAAAAAUUCCCUUCUCCUGCCCUCUUUCCCUGGCAACCCUGAUUGAUUAUCUGAUCCUAUAAUUUUGCCUUUUCUAGAAUGUCAUAUAAAUGGA | 1.4 |
| AUUCUAGAAGGUAUGCGAUCAAACUUUUUAAAGAAAGAAAAUACUUUUUGACUCAUGGUUUAAAGGCAUCCUUUCCAUCUUGGGGAGGUCAUGGGUGCUCCUGGCAACUU | 0.428 |
| AUUUCUGUGUGUUGUGUAUGCUAGGUGAUGCCCUCAGAAGGGACUGACUACUAGACUGUAAGUGUGUUUUAUACAAGUGUGUAAGACUAAGACUCACGUGCACGAAUCGA | 2.94 |

Set 3
Target: Interferon regulatory factor 5, full length, phosphomimetic (IRF5, Homo sapiens, UniProt Q13568-2, residues 1-514, K96S/S451D/S453D/S456D/S462D)
Method: protein-binding microarray
Molecule type: double-stranded DNA, one strand shown
Medium: in vitro
Concentration: 250 nM
Setting: 60-bp whole probe
Together with: salmon DNA 0.4 mg/ml
Baseline: random background probes
Direction: higher = stronger binding
All sequences stand within: GCCTAGCAC … GTCTTGATTCGCTTGACGCTGCTG
| Strand | log fluorescence [z-score] |
| --- | --- |
| TTAGGTATCCTTTTCCTTGAGTGCTAG | 0.702 |
| GACGGACTGGACACTGGGGATGTGCTA | -0.332 |
| GACGAACTCAGACTGGAGACGTGCTAG | -0.421 |
| GACCGACTGGACTTTCGGGACGTGCTA | 4.85 |
| TCAAATTACCTTTTCACACTGTGCTAG | 0.705 |

Further values, each from its own experiment
| Substance | target | test | test system | setting | scale | measurement | value |
| --- | --- | --- | --- | --- | --- | --- | --- |
| PhoQ, residues 284 288 289 292 302 303 SNGLAW | PhoP, residues 12 14 15 18 19 LHSVQ (Escherichia coli, UniProt P23836) | Sort-seq, item: YFP reporter | E. coli | PhoQ-PhoP variant library, together with: 10 µM Mg2+ | baseline: high Mg2+ state, higher = stronger signaling | fold induction | 7.43 |

For quick reference, copied from above (further values, each from its own experiment):
| Substance | target | test | test system | setting | scale | measurement | value |
| --- | --- | --- | --- | --- | --- | --- | --- |
| PhoQ, residues 284 288 289 292 302 303 SNGLAW | PhoP, residues 12 14 15 18 19 LHSVQ (Escherichia coli, UniProt P23836) | Sort-seq, item: YFP reporter | E. coli | PhoQ-PhoP variant library, together with: 10 µM Mg2+ | baseline: high Mg2+ state, higher = stronger signaling | fold induction | 7.43 |
